Published values of several laboratories.
Each line is one published result; not all experiments were run side by side. ± gives the spread as reported.

`CC(C)=CCc1c(O)cc(O)cc1-c1cc2ccc(O)c(CC=C(C)C)c2o1` gave a cell survival of 93.94 ± 0.82% (MCF7; cell growth, MTT; 3.6 µg/mL, 48 h).
`CCN(CC)c1ccc(C=NNC(=O)CSc2nc3ccccc3c(=O)n2Cc2ccc(S(N)(=O)=O)cc2)c(O)c1` gave a CC50 of greater than 100000 nM (CCRF-CEM; NCI five-dose screen).
With `COc1c(CCC[P+](c2ccccc2)(c2ccccc2)c2ccccc2)cc2c(c1OC)OCO2.[I-]` the Log10LC50 was greater than -4 log M (CCRF-CEM; SRB).
`Nc1ncc(-c2nc(N3CCOCC3)nc(N3CCOCC3)n2)c(C(F)F)n1` gave a GI50 of 53 nM (VA-ES-BJ; 72 h).
With `O=C1CCP(=S)(c2ccccc2)CC1` the viability reduction was 98% (PC-3; trypan blue; IC50, 72 h).
`COc1cc(CCC[P+](c2ccccc2)(c2ccccc2)c2ccccc2)c(OC)c2c1OCO2.[I-]` has a GI50 of -6.06 log M (SK-MEL-28; SRB).
The IC50 of `COc1c(C)c2c(c(O)c1C/C=C(\C)CCC(=O)O)C(=O)OC2` is reported as 617 nM (SK-N-SH; cell proliferation).
For `CN1CCN(S(=O)(=O)c2cc([N+](=O)[O-])ccc2N(CCOS(C)(=O)=O)CCOS(C)(=O)=O)CC1`, the IC50 was 41000 nM (sample D B-ALL PDX cells; cell viability; ex vivo; 48 h, together with: AKR1C3 inhibitor 1 µM, 1 h pretreatment).
`CN1CCN(C2(CNC3CCN(c4cccc(-c5cc6cc(F)ccc6[nH]5)c4)CC3)CCC2)CC1` has a GI50 of 2130 nM (SK-MEL-2).
For `Oc1cc(O)cc(-c2cc3ccc(O)cc3o2)c1`, the cell survival was 79.8 ± 1.2% (3T3; cell growth, MTT; 3.6 µg/mL, 48 h).
Under “G2 phase cells”, `Oc1ccc(C2(c3ccc(O)cc3)c3ccccc3-c3ccccc32)cc1` is recorded as 20.6 ± 2.59% (HepG2 spheroids; Hoechst flow cytometry; 10 µM, 24 h).
The cell survival of `C[C@H]1[C@H](C)CC[C@]2(C(=O)O)CC[C@]3(C)C(=CC[C@@H]4[C@@]5(C)CC[C@H](O)C(C)(C)[C@@H]5CC[C@]43C)[C@H]12` is reported as 82.9 ± 0.42% (MCF7; cell growth, MTT; 1.8 µg/mL, 48 h).
The CC50 of `CC(C)N1CCC(NC2CCN(c3cccc(-c4cc5cc(F)ccc5[nH]4)c3)CC2)CC1` is reported as 7250 nM (SK-MEL-2).
With `Nc1ncnc2c1ncn2[C@@H]1O[C@@H]2COP(=O)(O)O[C@H]3[C@@H](O)[C@H](n4cnc5c(=O)[nH]cnc54)O[C@@H]3COP(=O)(O)O[C@H]2[C@H]1O` the fold enrichment was 15.3 (HFF-1; RNA sequencing, measured: Reactome MHC class I peptide loading; upregulated pathways; baseline: mock).

A few entries again:
With `Nc1ncnc2c1ncn2[C@@H]1O[C@@H]2COP(=O)(O)O[C@H]3[C@@H](O)[C@H](n4cnc5c(=O)[nH]cnc54)O[C@@H]3COP(=O)(O)O[C@H]2[C@H]1O` the fold enrichment was 15.3 (HFF-1; RNA sequencing, measured: Reactome MHC class I peptide loading; upregulated pathways; baseline: mock).
